Published values from different studies.
A part holds a random share of what one study measured. Substitutions count along the parent as printed.

Set 1
Target: CCND1, cyclin fold, Cln2 fusion (human)
Method: yeast growth competition, sequencing
Sample: yeast
Notes: strong parent motif
Baseline: not given
Reading: higher = stronger binding
Starting sequence: E2F1 docking peptide (human); PPVKRRLDFETDH
For `R6A`, “normalised enrichment score” read 1.37.
`E10S`: “normalised enrichment score” 2.8.
`D12N` — result for “normalised enrichment score”: 2.83.
`V3Q` — result for “normalised enrichment score”: 0.255.
Under “normalised enrichment score”, `F9K` is recorded as 0.137.
For `F9W`, “normalised enrichment score” read 0.426.
`D12Y`: “normalised enrichment score” 3.13.
`L7D` — result for “normalised enrichment score”: -0.317.
`V3P` — result for “normalised enrichment score”: 1.2.
`L7E` — result for “normalised enrichment score”: 0.188.
`E10P`: “normalised enrichment score” 1.37.
For `L7N`, “normalised enrichment score” read 0.0581.
Under “normalised enrichment score”, `R5D` is recorded as 0.223.
For `D8N`, “normalised enrichment score” read 3.15.
`D12W`: “normalised enrichment score” 2.63.
`L7V` — result for “normalised enrichment score”: 0.0357.
`R5Y` — result for “normalised enrichment score”: 0.524.
Under “normalised enrichment score”, `P2R` is recorded as 1.9.
Under “normalised enrichment score”, `R5L` is recorded as 0.976.
Under “normalised enrichment score”, `P2S` is recorded as 2.98.
`V3W` — result for “normalised enrichment score”: 0.337.
`P2C` — result for “normalised enrichment score”: 2.74.
`L7K`: “normalised enrichment score” 0.149.
`D8P`: “normalised enrichment score” 0.219.
For `K4A`, “normalised enrichment score” read 4.36.

Set 2
Target: RNA binding protein fox-1 homolog 2, RRM domain, GST-SBP tag (RBFOX2, Homo sapiens, UniProt O43251-10, residues 100-194)
Method: RNA Bind-n-Seq
Molecule type: RNA
Sample: in vitro
Tested at: 365 nM
Notes: natural RNA segment, single round, ends assumed
Baseline: no-protein control
Reading: higher = stronger binding
Residues (chain): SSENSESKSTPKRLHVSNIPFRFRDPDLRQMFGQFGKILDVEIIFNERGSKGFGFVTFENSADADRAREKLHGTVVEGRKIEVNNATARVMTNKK
Under “RBNS enrichment (R)”, `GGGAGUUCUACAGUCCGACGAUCGUGUUCUAGAUUUAGCUAUUUAUUGUUUGCGGCCUGCAUGCUGAAACAGUGCUUACGUUGUCUCCAUGUGUACGGGGCCUGUGUGGAUGGUCGUAUGUUUUGCACAUUUUUGGAAUUCUCGGGUGCCAA` is recorded as 9.65.
For `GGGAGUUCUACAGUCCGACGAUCCUUGGGCGAGUGUGGCGCCAACAAGCCUGAGAUUCAAACGCUUUCCAUUUAAGCAAACCUCUUCUUGUUUUUAUACUUCAUUUUGUUUCCCAUGUUGAUGAAAGUACUGCUGGAAUUCUCGGGUGCCAA`, “RBNS enrichment (R)” read 0.343.
`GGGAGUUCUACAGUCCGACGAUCUAAAAAUCAGUAUGUGUUUAGUUUUAGUGUACUGAAGGGUAAACAUGGUUUUAUUUUAUUUUACCAUAUUAUUUUGUGUUGUUUUAUUUCUAUUGUGCUGUAAGUUGAUGUGGAAUUCUCGGGUGCCAA` — result for “RBNS enrichment (R)”: 1.52.
Under “RBNS enrichment (R)”, `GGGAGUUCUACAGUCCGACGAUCCUUUGCCGUGCACGACUGUUCCUGCAAUUGAUAUUGUGUGAAACCUGGGAGGGUGGUCUUUGGGUGUUCUCAGGGGCCAAUGGUAAUUUUUGGUUGGGGAGCCAGCUUGGUGGAAUUCUCGGGUGCCAA` is recorded as 1.78.
Under “RBNS enrichment (R)”, `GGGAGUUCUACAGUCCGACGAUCGGCUCUCUGAGGGCAACCAGGCCUUGUGUCCUGGUACCUGUGACACUGUUGUGGUCACAGCAGUGCCCUUGGACAGGGCAUUAAGGCUGACCCUGAAGGAGUGGUGCUGCUGGAAUUCUCGGGUGCCAA` is recorded as 0.318.
`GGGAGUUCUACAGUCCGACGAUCGCCAAGCUUCAUCUUACUGAAAAAGACUCAGACCCUCAGCAAAGAACAAUGGAGAGAAAGUAGGUGAGUACUUUGAGUGUUGGGCUUUGGGCCAAAAAUGCAGACUCAGGUGGAAUUCUCGGGUGCCAA`: “RBNS enrichment (R)” 0.64.
`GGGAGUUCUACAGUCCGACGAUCCUUAACCUUGCUAUGUCUCUCCUUUGAAUAAUGGGGCUUAAAAGAAUAAUGAACAUGGAAUUUGAAUUACUUUUACAAAGCAAUAUGAACUUGUAGAGCUUGUCUUGUGCUGGAAUUCUCGGGUGCCAA`: “RBNS enrichment (R)” 0.424.
Under “RBNS enrichment (R)”, `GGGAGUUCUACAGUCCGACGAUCUUGGCUUUCAGAAAGAUACAGUGAUAAUGUGUGUAUGAAUCAGUCACAAUGAAUUUUACUUGAAUAUUGUAUGUUGCAUUCCACUUCAUUUGAAAAUAAUGAAACCAUGUUGGAAUUCUCGGGUGCCAA` is recorded as 1.27.

Set 3
Target: CREM, bZIP domain (human)
Method: DHFR protein complementation
Sample: yeast
Notes: single substitutions, most at no-binding floor
Baseline: wild-type JUN-FOS pair
Reading: higher = stronger binding
Starting sequence: JUN, bZIP domain (human); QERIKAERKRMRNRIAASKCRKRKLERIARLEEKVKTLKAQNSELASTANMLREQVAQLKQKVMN; partner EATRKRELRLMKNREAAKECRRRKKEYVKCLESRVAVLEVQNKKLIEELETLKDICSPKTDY
`A46Q` has a binding fitness of -1.33 natural log.
`E44V` has a binding fitness of -1.45 natural log.
`I28Q` has a binding fitness of -1.29 natural log.
For `A57W`, the binding fitness was -1.37 natural log.
With `V56P` the binding fitness was -1.52 natural log.
`S47D` gave a binding fitness of -1.41 natural log.
With `K36E` the binding fitness was -1.35 natural log.
For `R30F`, the binding fitness was -1.35 natural log.
`L45C` has a binding fitness of -1.5 natural log.
With `T37H` the binding fitness was -1.47 natural log.
`Q41V` gave a binding fitness of -1.47 natural log.
`R53L` gave a binding fitness of -1.38 natural log.
With `S43K` the binding fitness was -1.41 natural log.
`I28W` gave a binding fitness of -1.34 natural log.
For `R53K`, the binding fitness was -1.26 natural log.
For `V56W`, the binding fitness was -1.47 natural log.

Set 4
Target: RING finger protein unkempt homolog, zinc fingers 1-6, SBP tag (UNK, Homo sapiens, UniProt Q9C0B0, residues 30-357)
Sequence of UniProt Q9C0B0 (30-357, looked up): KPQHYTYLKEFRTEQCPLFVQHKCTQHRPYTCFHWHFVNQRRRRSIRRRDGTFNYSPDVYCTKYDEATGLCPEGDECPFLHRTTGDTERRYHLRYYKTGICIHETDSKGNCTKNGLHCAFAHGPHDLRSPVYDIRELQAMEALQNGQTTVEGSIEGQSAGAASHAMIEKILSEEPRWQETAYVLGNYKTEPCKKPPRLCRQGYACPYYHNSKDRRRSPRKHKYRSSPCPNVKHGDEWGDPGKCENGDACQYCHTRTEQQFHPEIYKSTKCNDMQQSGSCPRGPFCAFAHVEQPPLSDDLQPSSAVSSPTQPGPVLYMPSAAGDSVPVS
Method: RNA Bind-n-Seq
Molecule type: RNA
Sample: in vitro
Tested at: 100 nM
Notes: RNA with constant flanks, vertebrate orthologous sites, ends assumed
Baseline: input RNA pool
Reading: higher = stronger binding
`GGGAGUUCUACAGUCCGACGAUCGUGUUGGUGCAGAGUGCUCUGUACCAGUGCUCAUCAUCCCUUCUUCAUACCAACGGUCCCUAGUUAUAGGAAUUUAAUAUUUUUAAAAGUUUUACAUUGCUGUAUAUUCAAAGAUUUGUUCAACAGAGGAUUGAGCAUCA` gave a bound/input enrichment of 0.588 ratio.
The bound/input enrichment of `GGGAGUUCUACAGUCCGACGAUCCUAAUUUGAUUUUCAGUCUCUUUAUCCUUAUUUUAAGAGCCCCCUUUUUUUAUUUUUUAGGCAUAUAUAGUAACAUUAGCAGAAAGAUUUAAUUUGGGCAACUUUGAUUCUUAAAAGAGACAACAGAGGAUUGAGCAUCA` is reported as 0.797 ratio.
For `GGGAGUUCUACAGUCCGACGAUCAAUCUUCUACUUAAACUGGUAUUUUCAAACAAUAGGAACCUAUUUUUUGUUUUUUUACAGUUUAGUAUCUCGUUUCUACAUGGAAGACUAAACUCAUGCUUAUAGCUAAAUGUGGUCUUUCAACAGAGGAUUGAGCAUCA`, the bound/input enrichment was 0.233 ratio.
The bound/input enrichment of `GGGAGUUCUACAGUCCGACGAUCUGAGGGAGAGAUUUCUGUGCUUUCUCAUAUUUAAUUUGUUGUUUUUAAGAUAUUCCAACCUAGAGUUUUUGAUGGAACUGAUAUAUUGAUAGUUCUCACCUAAGUCCUUUUAUAAAGAAUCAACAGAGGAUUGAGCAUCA` is reported as 1.28 ratio.
For `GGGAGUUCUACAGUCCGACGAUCUUGUUUUGUGCAGGGUAUUCUCUGUACAAAUUUGUUGUGGUUAUAAAACAAUUAGCAAAACAGCUUACAUUUGUAUUUAUUUUCUAUUCCAUACCUCUGCCCCAUGUUUUUUCUCCUCAACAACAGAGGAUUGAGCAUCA`, the bound/input enrichment was 0.57 ratio.
With `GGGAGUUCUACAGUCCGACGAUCGCACAUGCCGCUAUCACCAAAAGCAAAUUGUCAUUUUUCAGAUAUCAUUCAGAGCCGUUUUAGUGUUUCCUACUCCCUGCCCUUCCCAUUACUUUCAAUGAUGAAAGUUCUCCUCUGACACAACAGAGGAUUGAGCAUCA` the bound/input enrichment was 1.16 ratio.
For `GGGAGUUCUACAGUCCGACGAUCAUUCAAACCCGUGGUGCCCUGGCCUCACGUGGAAGGCGUAGAAGUGGACUUGGAGUCUAUUCGAAGAAGGAACAAGGCCAGACAUGAACAAGAGCGCCGCUCCGGAGGAGAGGACCAGAACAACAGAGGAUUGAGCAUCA`, the bound/input enrichment was 0.213 ratio.
`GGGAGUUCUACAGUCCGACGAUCCUGUUGUUAAGCACUGUGUUCCAGACCGUGUCUGACUUUAGUGUAACCUAGGAGAUUUUAUAGUUUUAUUUUAAUGAAAUCCUGAUUGGUGCAGCGCAGUGGGAAAAGCAGUGUCUUUCACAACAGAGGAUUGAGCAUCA` has a bound/input enrichment of 2.19 ratio.

Further values, each from its own experiment
`PhoQ, residues 284 288 289 292 302 303 GLASVI` has a fold induction of 10.9 (PhoP, residues 12 14 15 18 19 SGWQI (Escherichia coli, UniProt P23836); Sort-seq, measured: YFP reporter; E. coli; PhoQ-PhoP variant library, added: 10 µM Mg2+; baseline: high Mg2+ state, higher = stronger signaling).

For quick reference, copied from above (set 3):
`Q41V` gave a binding fitness of -1.47 natural log.
`R53L` gave a binding fitness of -1.38 natural log.
With `S43K` the binding fitness was -1.41 natural log.
`I28W` gave a binding fitness of -1.34 natural log.
